Measurements from different studies.
Each line is one published result; not all experiments were run side by side. ± gives the spread as reported.
MTNR1A: Melatonin receptor type 1A (MTNR1A, Homo sapiens, UniProt P48039)
Sequence of UniProt P48039 (whole entry, looked up): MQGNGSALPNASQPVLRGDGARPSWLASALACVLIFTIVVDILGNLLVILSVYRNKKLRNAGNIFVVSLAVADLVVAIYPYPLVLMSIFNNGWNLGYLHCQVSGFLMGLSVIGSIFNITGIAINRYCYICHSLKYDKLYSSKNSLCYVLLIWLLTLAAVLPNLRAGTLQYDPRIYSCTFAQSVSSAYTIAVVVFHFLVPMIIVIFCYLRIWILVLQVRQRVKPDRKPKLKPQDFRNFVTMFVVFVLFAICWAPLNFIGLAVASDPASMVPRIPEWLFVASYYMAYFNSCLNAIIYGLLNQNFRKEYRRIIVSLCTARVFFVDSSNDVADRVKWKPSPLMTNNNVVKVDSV
PTH1R: Parathyroid hormone/parathyroid hormone-related peptide receptor (PTH1R, Homo sapiens, UniProt Q03431)
Sequence of UniProt Q03431 (whole entry, looked up): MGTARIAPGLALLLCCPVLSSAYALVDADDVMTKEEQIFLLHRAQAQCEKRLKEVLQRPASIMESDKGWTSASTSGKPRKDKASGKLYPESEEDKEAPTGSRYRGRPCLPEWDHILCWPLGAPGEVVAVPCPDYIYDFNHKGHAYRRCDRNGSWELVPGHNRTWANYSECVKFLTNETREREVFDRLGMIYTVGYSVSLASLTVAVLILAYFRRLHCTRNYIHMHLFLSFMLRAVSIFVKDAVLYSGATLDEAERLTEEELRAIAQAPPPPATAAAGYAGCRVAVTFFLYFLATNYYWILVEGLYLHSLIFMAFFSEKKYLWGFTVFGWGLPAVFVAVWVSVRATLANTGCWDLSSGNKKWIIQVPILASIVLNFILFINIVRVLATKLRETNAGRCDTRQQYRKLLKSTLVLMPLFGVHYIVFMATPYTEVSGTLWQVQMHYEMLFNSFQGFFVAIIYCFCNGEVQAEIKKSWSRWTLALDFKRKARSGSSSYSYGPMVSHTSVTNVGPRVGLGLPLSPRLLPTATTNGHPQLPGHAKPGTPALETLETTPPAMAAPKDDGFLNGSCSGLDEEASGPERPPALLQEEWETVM
Sequence of UniProt Q9NSD7 (whole entry, unmodified, looked up): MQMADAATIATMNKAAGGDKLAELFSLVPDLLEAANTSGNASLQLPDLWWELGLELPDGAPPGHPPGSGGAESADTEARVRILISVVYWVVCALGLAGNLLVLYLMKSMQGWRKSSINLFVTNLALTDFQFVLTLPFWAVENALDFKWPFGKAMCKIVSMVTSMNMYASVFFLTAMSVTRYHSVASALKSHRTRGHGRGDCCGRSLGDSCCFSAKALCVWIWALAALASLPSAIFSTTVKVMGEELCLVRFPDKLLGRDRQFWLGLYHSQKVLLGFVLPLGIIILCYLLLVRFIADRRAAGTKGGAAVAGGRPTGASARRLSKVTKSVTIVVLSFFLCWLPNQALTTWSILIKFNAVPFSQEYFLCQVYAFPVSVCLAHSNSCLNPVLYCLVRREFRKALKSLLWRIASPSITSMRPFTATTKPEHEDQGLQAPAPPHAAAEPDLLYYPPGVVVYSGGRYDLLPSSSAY
Sequence of UniProt Q969F8 (whole entry, unmodified, looked up): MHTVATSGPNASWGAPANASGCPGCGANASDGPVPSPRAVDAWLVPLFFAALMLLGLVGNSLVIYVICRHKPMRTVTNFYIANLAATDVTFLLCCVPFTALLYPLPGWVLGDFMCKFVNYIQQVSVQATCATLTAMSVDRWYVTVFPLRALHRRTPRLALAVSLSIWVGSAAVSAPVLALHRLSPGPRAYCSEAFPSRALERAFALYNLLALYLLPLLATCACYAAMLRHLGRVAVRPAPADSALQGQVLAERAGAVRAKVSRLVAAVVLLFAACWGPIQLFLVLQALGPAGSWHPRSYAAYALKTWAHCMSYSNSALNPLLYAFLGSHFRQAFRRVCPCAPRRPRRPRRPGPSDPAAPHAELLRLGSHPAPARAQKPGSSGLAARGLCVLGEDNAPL
Sequence of UniProt P25103 (whole entry, looked up): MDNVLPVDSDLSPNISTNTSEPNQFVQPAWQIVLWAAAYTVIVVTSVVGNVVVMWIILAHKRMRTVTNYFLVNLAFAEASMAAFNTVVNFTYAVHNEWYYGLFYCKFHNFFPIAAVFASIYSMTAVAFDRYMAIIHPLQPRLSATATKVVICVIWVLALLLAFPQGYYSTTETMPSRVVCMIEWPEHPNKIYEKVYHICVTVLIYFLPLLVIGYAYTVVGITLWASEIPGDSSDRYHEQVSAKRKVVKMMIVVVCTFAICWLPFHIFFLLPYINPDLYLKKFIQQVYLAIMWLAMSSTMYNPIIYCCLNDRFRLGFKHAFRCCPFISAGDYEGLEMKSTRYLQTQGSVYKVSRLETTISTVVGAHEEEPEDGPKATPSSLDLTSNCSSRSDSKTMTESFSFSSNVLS

SMILES	target	test	system	setting	scale	Emax
CNC(=N)NCCC[C@H](NC(=O)[C@H](CC(C)C)NC(=O)NNC(=O)[C@H](Cc1ccccc1)NC(=O)[C@@H](NC(=O)[C@H](CC(N)=O)NC(=O)[C@@H]1C[C@@H](O)CN1C(=O)[C@@H](Cc1ccc(O)cc1)NC(C)=O)[C@@H](C)O)C(=O)N[C@@H](Cc1c[nH]c2ccccc12)C(N)=O	KiSS-1 receptor (KISS1R, Homo sapiens, UniProt Q969F8, L148G)	inositol phosphate, agonist	HEK293			62.2%
COc1cc(I)c(Cc2cc(OC)c(OC)cc2CC(=O)OC(C)(C)C)cc1OC	MTNR1A	GTPγS binding, agonist, radiometric		cell membranes		8%
CCCCCCCCCCCCCCCC(=O)N[C@H](CCCNC(=N)N)C(=O)NCCCC[C@H](NC(=O)[C@H](C)NC(=O)[C@H](CCCCNC(=N)N)NC(=O)[C@H](CCC(N)=O)NC(=O)[C@H](Cc1c[nH]cn1)NC(=O)[C@H](CCCC)NC(=O)[C@H](CC(C)C)NC(=O)[C@H](CCC(N)=O)NC(=O)[C@@H](NC(=O)[C@H](CCC(=O)O)NC(=O)C(C)(C)NC(=O)[C@@H](NC(=O)C1(N)CCCC1)C(C)C)[C@@H](C)CC)C(N)=O	PTH1R	cAMP response, agonist, GloSensor cAMP	GP-2.3	ligand-on phase		98.2 ± 6%
CC[C@H](C)[C@@H]1NC(=O)[C@H](Cc2ccccc2)NC(=O)[C@H](CCC(=O)O)NC(=O)[C@H](CCCNC(=N)N)NC(=O)CNC(=O)[C@@H](NC(=O)[C@H](CC(C)C)NC(=O)[C@H](CCCNC(=N)N)NC(=O)[C@@H](NC(=O)CNC(=O)[C@H](Cc2ccc(O)cc2)NC(=O)[C@@H]2CCCN2C(=O)[C@H](C)NC(=O)[C@H](C)NC(=O)[C@@H](N)CCCNC(=N)N)C(C)C)CSSC[C@@H]2NC(=O)[C@@H](NC(=O)[C@H](CO)NC(=O)[C@H](CO)NC(=O)[C@H](CO)NC(=O)[C@H](CC(C)C)NC(=O)CNC(=O)[C@H](C)NC(=O)[C@H](CC(C)C)NC(=O)[C@@H](NC(=O)[C@@H](N)CC(=O)O)C(C)C)CSSC[C@H](NC(=O)CNC(=O)[C@H](Cc3c[nH]c4ccccc34)NC(=O)[C@H](CCCCN)NC2=O)C(=O)N[C@@H](CO)C(=O)N[C@@H](CCCCN)C(=O)N[C@@H](CO)C(=O)N[C@@H](CCC(=O)O)C(=O)N[C@@H]([C@@H](C)CC)C(=O)N[C@@H](CO)C(=O)N[C@@H](CO)C(=O)N[C@@H](CC(C)C)C(=O)N[C@H](C(=O)O)CSSC[C@@H](C(=O)NCC(=O)NCC(=O)N[C@@H](CO)C(=O)N[C@@H](CCCNC(=N)N)C(=O)N[C@@H](Cc2c[nH]c3ccccc23)C(=O)O)NC(=O)[C@H]([C@@H](C)O)NC(=O)[C@H](Cc2ccccc2)NC(=O)[C@H]([C@@H](C)CC)NC(=O)[C@H](C(C)C)NC(=O)[C@H](C)NC(=O)[C@H](CCCNC(=N)N)NC1=O	Relaxin-3 receptor 1 (RXFP3, Homo sapiens, UniProt Q9NSD7, K271A)		HEK-293T		reference: wild type	77.8 ± 17.7%
CSCC[C@H](NC(=O)[C@H](CC(C)C)NC(=O)CNC(=O)[C@H](Cc1ccccc1)NC(=O)[C@H](Cc1ccccc1)NC(=O)[C@@H](N)CCC(N)=O)C(N)=O	Substance-P receptor, with miniGs (TACR1, Homo sapiens, UniProt P25103)	miniGs recruitment, BRET	HEK293	30 min	reference: 10 µM substance P	89 ± 7%
CCCCCCCCCCCCCCCC(=O)N[C@@H](CCCNC(=N)N)C(=O)NCCCC[C@H](NC(=O)[C@H](CCC(N)=O)NC(=O)[C@H](Cc1c[nH]cn1)NC(=O)[C@H](CCCC)NC(=O)[C@H](CC(C)C)NC(=O)[C@H](CCC(N)=O)NC(=O)[C@@H](NC(=O)[C@H](CCC(=O)O)NC(=O)C(C)(C)NC(=O)[C@@H](NC(=O)C1(N)CCCC1)C(C)C)[C@@H](C)CC)C(N)=O	PTH1R	cAMP response, agonist, GloSensor cAMP	GP-2.3	ligand-on phase		112 ± 5.3%
COc1ccc2[nH]c(I)c(CCNC(C)=O)c2c1	MTNR1A	cAMP, agonist, TR-FRET	CHO-K1	20 min		90%
CC[C@H](C)[C@H](NC(=O)[C@H](CCC(=O)O)NC(=O)[C@H](C)NC(=O)[C@@H](NC(=O)[C@H](Cc1c[nH]cn1)NC(=O)[C@H]1CCC[C@@H]1NC(=O)[C@H](CCC(=O)O)NC(=O)[C@H](C)NC(=O)[C@@H](NC(=O)[C@H]1CCC[C@@H]1NC(=O)[C@H](Cc1c[nH]cn1)NC(=O)[C@H](Cc1c[nH]cn1)NC(=O)[C@H](CC(C)C)NC(=O)[C@H]1CCC[C@@H]1NC(=O)[C@H](Cc1ccccc1)NC(=O)[C@H](CCCNC(=N)N)NC(=O)[C@H](CCCNC(=N)N)NC(=O)[C@H](CCCNC(=N)N)NC(=O)[C@H](CC(C)C)NC(=O)[C@H](CC(=O)O)NC(=O)[C@H](CCC(N)=O)NC(=O)[C@@H](NC(=O)[C@H](CO)NC(=O)[C@H](CCCCN)NC(=O)CNC(=O)[C@H](CCCCN)NC(=O)[C@H](CC(=O)O)NC(=O)[C@H](Cc1c[nH]cn1)NC(=O)[C@H](CC(C)C)NC(=O)[C@H](CC(C)C)NC(=O)[C@H](CCC(N)=O)NC(=O)[C@H](Cc1c[nH]cn1)NC(=O)[C@H](CCC(=O)O)NC(=O)[C@H](CO)NC(=O)[C@@H](NC(=O)[C@H](C)N)C(C)C)[C@@H](C)CC)[C@@H](C)CC)[C@@H](C)O)C(N)=O	Parathyroid hormone/parathyroid hormone-related peptide receptor, with β-arrestin-2 (PTH1R, Homo sapiens, UniProt Q03431)	β-arrestin-2 recruitment, agonist, BRET	CHO-FlpIn cells			30 to 40%
CCCCCCCCCCCCCCCC(=O)N[C@H](CCC(=O)O)C(=O)NCCCC[C@H](NC(=O)[C@H](CCCCNC(=N)N)NC(=O)[C@H](CCC(N)=O)NC(=O)[C@H](Cc1c[nH]cn1)NC(=O)[C@H](CCCC)NC(=O)[C@H](CC(C)C)NC(=O)[C@H](CCC(N)=O)NC(=O)[C@@H](NC(=O)[C@H](CCC(=O)O)NC(=O)C(C)(C)NC(=O)[C@@H](NC(=O)C1(N)CCCC1)C(C)C)[C@@H](C)CC)C(N)=O	PTH1R	cAMP response, agonist, GloSensor cAMP	GP-2.3	ligand-on phase		85 ± 6.9%
COc1ccc2[nH]c(Br)c(CCNC(C)=O)c2c1	MTNR1A	β-arrestin recruitment, agonist	CHO-K1	90 min		101%
CCCCCCCCCCCCCCCC(=O)N[C@H](CCC(=O)O)C(=O)NCCCC[C@H](NC(=O)[C@H](CCC(N)=O)NC(=O)[C@H](Cc1c[nH]cn1)NC(=O)[C@H](CCCC)NC(=O)[C@H](CC(C)C)NC(=O)[C@H](CCC(N)=O)NC(=O)[C@@H](NC(=O)[C@H](CCC(=O)O)NC(=O)C(C)(C)NC(=O)[C@@H](NC(=O)C1(N)CCCC1)C(C)C)[C@@H](C)CC)C(N)=O	PTH1R	cAMP response, agonist, GloSensor cAMP	GP-2.3	washout phase		133 ± 14%
CCc1cc(O)cc2c(/C=N/NC(=N)NCCc3ccc(Cl)cc3)c[nH]c12	Relaxin-3 receptor 1 (RXFP3, Homo sapiens, UniProt Q9NSD7, T162A)		HEK-293T		reference: wild type	79.3 ± 13.8%
COc1cc2c(CCNC(C)=O)c[nH]c2cc1Cl	MTNR1A	cAMP, agonist, TR-FRET	CHO-K1	20 min		86%

Repeated from above:
SMILES	target	test	system	setting	scale	Emax
CCCCCCCCCCCCCCCC(=O)N[C@H](CCC(=O)O)C(=O)NCCCC[C@H](NC(=O)[C@H](CCC(N)=O)NC(=O)[C@H](Cc1c[nH]cn1)NC(=O)[C@H](CCCC)NC(=O)[C@H](CC(C)C)NC(=O)[C@H](CCC(N)=O)NC(=O)[C@@H](NC(=O)[C@H](CCC(=O)O)NC(=O)C(C)(C)NC(=O)[C@@H](NC(=O)C1(N)CCCC1)C(C)C)[C@@H](C)CC)C(N)=O	PTH1R	cAMP response, agonist, GloSensor cAMP	GP-2.3	washout phase		133 ± 14%
CCCCCCCCCCCCCCCC(=O)N[C@@H](CCCNC(=N)N)C(=O)NCCCC[C@H](NC(=O)[C@H](CCC(N)=O)NC(=O)[C@H](Cc1c[nH]cn1)NC(=O)[C@H](CCCC)NC(=O)[C@H](CC(C)C)NC(=O)[C@H](CCC(N)=O)NC(=O)[C@@H](NC(=O)[C@H](CCC(=O)O)NC(=O)C(C)(C)NC(=O)[C@@H](NC(=O)C1(N)CCCC1)C(C)C)[C@@H](C)CC)C(N)=O	PTH1R	cAMP response, agonist, GloSensor cAMP	GP-2.3	ligand-on phase		112 ± 5.3%
